Measurements from different studies.
Every numbered part comes from another study and shows a few of its results, in no order. Substitutions count along the parent as printed.

Sample 1 — target: CCNA2, cyclin fold, Cln2 fusion (human); technique: yeast growth competition, sequencing; matrix: yeast; notes: strong parent motif; baseline: not given; reading: higher = stronger binding; quantity: normalised enrichment score
Parent: CDKN1B docking peptide (human); PSACRNLFGPVDH; partner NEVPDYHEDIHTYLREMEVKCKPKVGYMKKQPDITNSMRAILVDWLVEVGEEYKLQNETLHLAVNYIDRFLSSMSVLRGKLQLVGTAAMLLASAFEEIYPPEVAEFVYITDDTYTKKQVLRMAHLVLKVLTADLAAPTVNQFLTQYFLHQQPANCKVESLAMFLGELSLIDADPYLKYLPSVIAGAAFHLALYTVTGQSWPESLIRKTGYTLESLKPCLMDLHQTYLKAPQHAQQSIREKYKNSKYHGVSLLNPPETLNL
S2H: 3.49
V11I: 4.26
H13T: 4.19
D12H: 3.75
P1C: 2.96
L7I: 1.76
S2K: 5.23
F8N: -0.0194
A3W: 2.29
R5P: -0.624
V11H: 4.06
S2R: 4.82
R5S: 0.112
N6G: 0.745
P10W: 3.32
G9N: 1.43
C4K: 4.95
L7S: 0.378
P10K: 3.51
R5K: 2.82
H13N: 4.12
R5W: -0.0542
A3R: 1.01
P10F: 3.53
N6W: 1.31

Sample 2 — technique: RNA Bind-n-Seq; molecule type: RNA; matrix: in vitro; concentration: 365 nM; baseline: no-protein control; reading: higher = stronger binding; quantity: RBNS enrichment (R)
Target: RNA binding protein fox-1 homolog 2, RRM domain, GST-SBP tag (RBFOX2, Homo sapiens, UniProt O43251-10, residues 100-194)
Notes: natural RNA segment, single round, ends assumed
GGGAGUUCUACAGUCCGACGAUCAGUAUGCCUGUGCCAUCAGAGAAGAGAUCCCACCCCAGUAGGAAGGUAUGGGGCAGUCCAGUUUAUAACUUUGCAACCAAACCCAAGCCUGCUCUUUUUGAAGCAGCUGAUGGAAUUCUCGGGUGCCAA: 0.455
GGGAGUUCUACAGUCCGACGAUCAAGAACAUGAAGAGAACAGAAUCACUUGAAAAUGGAUGCCAGUCAUCUCUUGUUCCCACUACUGAAUUCUUAUAAAGUGGUGGCAAGAUAGGGAAGGGAUAAUCUGAGAAUGGAAUUCUCGGGUGCCAA: 0.522
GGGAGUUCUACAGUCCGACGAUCAAAUUGGAAGGGUUUUGAGAUAUCCUAGAGAAAGAGCAAGCACUUUCUGAAUCAGUGGGGAAAUAUCAAUAUUUGAUCAAAUUAACACUACCUCCUUCCCAGUGUUGGUGUGGAAUUCUCGGGUGCCAA: 0.517
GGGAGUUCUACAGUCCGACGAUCAUUGUGGCACCCACAGCAAGCAGUUGCCUUACCAGUGAAAAAGGUGCACUGAGGUAACAUCUAAAACAGAGAUGUGGUUCUUAAUGUUUAACAGAACAGUUCUAAUCCUGUGGAAUUCUCGGGUGCCAA: 0.612
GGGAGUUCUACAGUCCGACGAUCGCUUAAUACAACAGGUGCCCAGAAUACUUGCAGUGUAAAUGAAGAUUGGAUUUUUGUAUAAAAAGAUAAUGCUGUCAAACGGGAACUGACCUUUAUUGAAUCUGAAAUGAUGGAAUUCUCGGGUGCCAA: 0.657
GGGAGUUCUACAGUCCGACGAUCCAUUGUGAAGAAAUGAAGAACCGAUAGUCUAGUUUAAGAAAGUGGCUCUCAGUAUUGUGACAGUACAUUUUUACAAGGUUGUUUUUCUACCACCGUAUUUUUAAAGUAUUUGGAAUUCUCGGGUGCCAA: 0.591
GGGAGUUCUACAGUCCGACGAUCCUGUUACACUCUAGGAUCUCUCACAGGUCUGUGGCAAUUACUGUUCAUGAUUUCCUGAAAAAAUAUUUUUUUAAAAGAAAACUAUUUUUUUUAAAUACUAGAGAGACAGUUGGAAUUCUCGGGUGCCAA: 0.628
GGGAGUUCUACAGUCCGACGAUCGUAUUCAUUCCCUUUAAAAUGAAACAUUCCUGGUUUAUUUGUCCAUGCCUCUAGCCUGGGUGAGUGAAGCUGGCUGUGUUGGCCUGGGUGAUUGUUCAGGUUGUAGAAUGUGGAAUUCUCGGGUGCCAA: 0.46
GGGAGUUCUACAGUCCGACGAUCAUUUCCUCUCCAGUACCCAUUUCCAAAGAGAAAGAGUGAAGUACUUUGAAGUCUGUACUUGAAAUCUGUCUGGAAGUGUUUCCUUGUUAGUUUUGGGUUUCUCCCCUGUCUGGAAUUCUCGGGUGCCAA: 0.434
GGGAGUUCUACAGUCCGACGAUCGGGUUAUAGGUGUUUAAAUUUCCUUUAGUGAAACUCUUAUUUAUUUUUAUGUAUUCCUGUUUAUUUAUUUACUGCCACGCUACUGAUAUUCAGACCUUCAUGAUCAUCCAUGGAAUUCUCGGGUGCCAA: 0.833
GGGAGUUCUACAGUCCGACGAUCUUGUUUACUGGUUAUCUCUAUUUAAGGAAAAAAAAAUAAAAUAAAACAUUUUGGAUUUUCAUAUGUGUCUGAUAAGUGGUUGAAUAGUCGUUUGGCGCUGUUGUAUGGUGUGGAAUUCUCGGGUGCCAA: 0.873
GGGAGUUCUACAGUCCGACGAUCCAGCCCCCAUACUGACAGACGGACAGACAGACAUGCAAACACCAGACUGAAGCACAUGUAAUAUAGACCGUGUAUGUUUACAAUGUUGUGUAUAAAUGGGACAACUCCUCUGGAAUUCUCGGGUGCCAA: 0.419

Sample 3 — target: ATF3, bZIP domain (human); technique: DHFR protein complementation; matrix: yeast; baseline: wild-type JUN-FOS pair; reading: higher = stronger binding; quantity: binding fitness
Notes: single substitutions, most at no-binding floor
Parent: JUN, bZIP domain (human); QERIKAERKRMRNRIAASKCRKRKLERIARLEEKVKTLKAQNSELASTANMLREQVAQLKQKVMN; partner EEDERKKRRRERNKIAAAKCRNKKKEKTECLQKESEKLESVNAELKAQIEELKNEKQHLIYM
S47C: -0.108 natural log
A40N: -0.239 natural log
V56Y: -1.26 natural log
K39R: 0.0341 natural log
L31K: -1.09 natural log
V35G: -1.22 natural log
R30G: -0.0586 natural log
L45D: -0.984 natural log
L38H: -1.32 natural log
E32V: -0.217 natural log
I28C: -0.33 natural log
A57M: -0.224 natural log
L52V: -0.797 natural log
L45T: -1.01 natural log
E54P: -1.11 natural log
Q58H: -0.241 natural log
A46N: -0.0599 natural log
A49R: -0.0297 natural log
I28Q: -0.0828 natural log
I28V: -0.173 natural log
T48P: -1.47 natural log
L31Q: -0.601 natural log
K34C: -0.365 natural log
T37A: -0.0134 natural log
Q58P: -1.3 natural log

Sample 4 — technique: protein binding microarray; molecule type: double-stranded DNA, one strand shown; matrix: in vitro; concentration: not given; baseline: not given; reading: higher = stronger binding; quantity: E-score
Target: Histone acetyltransferase KAT6A, both winged helices, GST fusion (KAT6A, Homo sapiens, UniProt Q92794, residues 1-181)
Notes: 8-mer, flanks averaged, mean of 2 arrays, mostly near background
Construct (chain): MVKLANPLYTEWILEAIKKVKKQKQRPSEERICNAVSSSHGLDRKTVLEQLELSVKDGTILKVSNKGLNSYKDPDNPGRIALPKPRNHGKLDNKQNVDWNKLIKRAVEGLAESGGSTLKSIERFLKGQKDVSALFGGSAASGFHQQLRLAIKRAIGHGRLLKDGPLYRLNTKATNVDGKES
GTGAAAGA: -0.0449
CCCCGGGA: 0.205
ACGAACAC: 0.0747
CGTCGTGA: 0.191
ACTATCAA: 0.00979
AATTCGTA: -0.049
AAGGCTAG: -0.182
GAGTGACA: -0.0649
AAAGTAAT: 0.0215
GCAAGGGA: -0.104
ACGTTACT: -0.0719
CTCGCGAC: 0.258
ATTTCGTA: -0.107
ATTAAGAC: -0.0798
AGGGCCAT: -0.195
AAGCCGCG: 0.354
AGATACCC: -0.0408
GGTCACAC: -0.0143

Mixed results
PhoQ, residues 284 288 289 292 302 303 SMMNNA
fold induction (PhoP, residues 12 14 15 18 19 STWGI (Escherichia coli, UniProt P23836); Sort-seq, item: YFP reporter; E. coli; PhoQ-PhoP variant library, with: 10 µM Mg2+; baseline: high Mg2+ state, higher = stronger signaling): 2.2

Repeated from above (sample 3):
L52V: -0.797 natural log
A46N: -0.0599 natural log
L31Q: -0.601 natural log
R30G: -0.0586 natural log
K34C: -0.365 natural log
I28V: -0.173 natural log
L45D: -0.984 natural log
Q58P: -1.3 natural log
